# Measured values collected from several papers.
# Parts stem from different laboratories: compare values within a part only.

# Block 1 — method: RNA Bind-n-Seq; molecule type: RNA; medium: in vitro; tested at: 1 µM; setting: whole 134-nt RNA, ends assumed; with: 150 mM KCl; relative to: input library; direction: higher = stronger binding
# Target: Ras GTPase-activating protein-binding protein 1, RRM domain (G3BP1, Homo sapiens, UniProt Q13283)
# Chain of UniProt Q13283 (whole entry, looked up): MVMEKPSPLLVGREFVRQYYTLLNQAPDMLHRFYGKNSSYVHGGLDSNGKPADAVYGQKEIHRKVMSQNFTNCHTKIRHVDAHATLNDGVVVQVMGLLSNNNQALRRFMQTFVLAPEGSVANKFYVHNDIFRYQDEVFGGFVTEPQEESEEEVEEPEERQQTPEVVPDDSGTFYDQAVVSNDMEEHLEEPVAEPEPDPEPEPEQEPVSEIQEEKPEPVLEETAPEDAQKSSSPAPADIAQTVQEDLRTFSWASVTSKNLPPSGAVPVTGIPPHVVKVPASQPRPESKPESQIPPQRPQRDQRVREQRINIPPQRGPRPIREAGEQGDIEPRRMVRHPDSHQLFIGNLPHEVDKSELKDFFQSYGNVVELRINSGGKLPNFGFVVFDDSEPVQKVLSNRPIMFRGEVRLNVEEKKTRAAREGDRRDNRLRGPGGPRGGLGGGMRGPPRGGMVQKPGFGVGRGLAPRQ
Strand,log2 enrichment
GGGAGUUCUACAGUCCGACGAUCCUCAAGUCCUGUGCUACACAUCGUAUGUACCGAAUCGGAAGGGAAGGGGAAGGGAAAGUAUUAUGUUACGCCGUUCGGAUCUGCACUUCCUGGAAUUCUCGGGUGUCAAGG,0.114
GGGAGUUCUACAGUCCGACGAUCUCAAGUCCUGUGCUACACAUCGUAUGUACCGAAUCGGCCGGGCCGGGGCCGGGGAAAGUAUUAUGUUACGCCGUUCGGAUCUGCACUUCCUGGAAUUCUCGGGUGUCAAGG,-1.08
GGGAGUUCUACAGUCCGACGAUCUCCUGUGCUACACAUCGUAUGUACCGAAUCGGGAAAGGGAAAAAAAGGGUUUUUUUGGGAAAGUAUUAUGUUACGCCGUUCGGAUCUGCAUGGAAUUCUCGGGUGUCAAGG,0.0748
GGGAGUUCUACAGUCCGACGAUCAAGUCCUGUGCUACACAUCGUAUGUACCGAAUCGUGUGUGUGUGUGUGUGUGUGUGAAAGUAUUAUGUUACGCCGUUCGGAUCUGCACUUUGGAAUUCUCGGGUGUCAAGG,0.05
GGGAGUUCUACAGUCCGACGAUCUUGAUUGAUAUUACAGGCAAGAACCAGGAUGAAUGUGUGAUUGCUUUGCAUGACUGCAAUGGAGAUGUCAACAGAGCUAUCAAUGUUCUUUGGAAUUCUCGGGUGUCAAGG,-0.399
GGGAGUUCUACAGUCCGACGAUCUCAAGUCCUGUGCUACACAUCGUAUGUACCGAAUCGGUUUUUGGAAAGGUUUGGAAAGUAUUAUGUUACGCCGUUCGGAUCUGCACUUCCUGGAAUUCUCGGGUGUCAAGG,-0.295
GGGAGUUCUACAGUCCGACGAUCUGAUCAGCAAAGCCAAGAUGAGCCUUUGAGAAGCAGAAAAGUGUUUGUGGGGCGCUGUACAGAGGACAUGACUGAGGAUGAGCUGCGGGAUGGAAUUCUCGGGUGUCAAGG,-0.0342
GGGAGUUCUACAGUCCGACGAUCUGCUUGUGUUUCUGACAGAUUCACUGCCUUCUGAGGACUUGGAUCCUGCCGAUCCCCCGAUCUCGGUAACUGUUGGCCUGAUCUGGCUGUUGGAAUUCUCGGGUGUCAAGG,0.0303
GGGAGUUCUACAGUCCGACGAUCAAGUCCUGUGCUACACAUCGUAUGUACCGAAUCGGUUUUUGGUUUUUUUGGUUUGGAAAGUAUUAUGUUACGCCGUUCGGAUCUGCACUUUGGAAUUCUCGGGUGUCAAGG,-0.247

# Block 2 — method: RNA Bind-n-Seq; molecule type: RNA; medium: in vitro; tested at: not given; relative to: input RNA pool; direction: higher = stronger binding
# Target: RING finger protein unkempt homolog, zinc fingers 1-6, GST-SBP tag (UNK, Homo sapiens, UniProt Q9C0B0, residues 30-357)
# Chain of UniProt Q9C0B0 (30-357, looked up): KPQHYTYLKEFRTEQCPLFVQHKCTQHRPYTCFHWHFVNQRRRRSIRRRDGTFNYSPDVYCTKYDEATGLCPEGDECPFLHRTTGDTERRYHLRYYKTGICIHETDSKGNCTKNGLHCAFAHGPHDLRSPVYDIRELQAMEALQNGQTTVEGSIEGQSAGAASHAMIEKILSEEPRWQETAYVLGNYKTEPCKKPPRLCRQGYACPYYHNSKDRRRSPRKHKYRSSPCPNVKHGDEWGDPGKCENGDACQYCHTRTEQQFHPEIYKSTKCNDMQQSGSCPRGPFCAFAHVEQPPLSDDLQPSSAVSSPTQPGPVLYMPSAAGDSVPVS
# Setting: RNA with constant flanks, human-mouse chimeric sites, ends assumed
Strand,bound/input enrichment [ratio]
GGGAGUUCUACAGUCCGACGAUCGCUCCUCCCCGCUCUGCAGCCUGGGGACACUGGGCUGGGACCAGAAUCCAGCUUUCUUUUAAAACUCUCAGUGUAACUGUAUCCCGUGACAUUUCAUUUUUUUUUUAUAGUGUAUUUUUUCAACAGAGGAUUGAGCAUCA,14.1
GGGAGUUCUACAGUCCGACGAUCGAUCCACAGUGGUCUGAGGAACAGCUGAUUGCUGCAAAAUUCUGUUUUGCUGGACUUGUUAUAGGGCAGACUGAAGUGGACAUCAUGAGUCAUGCCACACAAGCUAUUUUUGAAAUUCUGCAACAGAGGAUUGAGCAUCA,0.227
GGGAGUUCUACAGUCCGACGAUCAAGCAACGCAAACUUGAAACAAUUCGUUAUCUUGCAGCCUCAGUGUUCACUUGCUUGGCGAUAGCAUUGGGGUUUUAUAGGUUCUGGAAGGAGAACUGACGAUGAUGUCCUGCUGUGUGCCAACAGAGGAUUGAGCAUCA,0.102
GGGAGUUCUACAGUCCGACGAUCACUCAGAGAUCCACCUCCCAAAGUGCUGGGAGUAAAGGUGUGGCCACUCAAUUCUCCUUCAUAGACAUAUAUUUUUUUUAAUAUGAAUCUUCCUGUUCGUCCAGGGAAGAAAGAUUUGUUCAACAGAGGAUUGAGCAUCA,13.5
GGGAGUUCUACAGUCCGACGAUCCUGAGGAUACCACUGAAAGAGACAUUAAAGAAUCAUUUGAGGGCUCUGUUCGUGCAAGAAUAGUCACUGAUCGGGAAACUGGUUCUUCCAAAGGGUUUGGUUUUGUAGACUUUAAUAGUGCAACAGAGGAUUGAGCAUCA,1.08

# Block 3 — method: protein binding microarray; molecule type: double-stranded DNA, one strand shown; medium: in vitro; tested at: not given; relative to: not given; direction: higher = stronger binding
# Target: Histone acetyltransferase KAT6A, both winged helices, GST fusion (KAT6A, Homo sapiens, UniProt Q92794, residues 1-181)
# Setting: 8-mer, flanks averaged, mean of 2 arrays, mostly near background
# Target sequence (chain): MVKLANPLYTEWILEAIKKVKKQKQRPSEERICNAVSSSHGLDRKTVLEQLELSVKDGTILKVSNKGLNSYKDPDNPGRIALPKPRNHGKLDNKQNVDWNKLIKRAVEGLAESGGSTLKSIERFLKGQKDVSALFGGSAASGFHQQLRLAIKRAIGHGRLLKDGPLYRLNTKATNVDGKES
Strand,E-score
GCGCGTCC,0.338
CTAAACAA,-0.158
ACCAGATG,-0.191
ACGTCACA,-0.12
TATTATAA,-0.0811
CTCGCTTA,-0.0327
CCTTATAG,-0.183
GAGGACTC,-0.132
ACTAATAA,-0.0528
AGTAGGTG,-0.125
AAAGATCG,-0.0313

# Other studies, line by line
Molecule,target,assay,system,conditions,how to read,measurement,value
"PhoQ, residues 284 288 289 292 302 303 AGCYAI","PhoP, residues 12 14 15 18 19 LWHSL (Escherichia coli, UniProt P23836)","Sort-seq, measured: YFP reporter",E. coli,"PhoQ-PhoP variant library, with: 10 µM Mg2+","relative to: high Mg2+ state, higher = stronger signaling",fold induction,13.6

# For quick reference, copied from above (block 3):
Strand,E-score
ACGTCACA,-0.12
TATTATAA,-0.0811
CTCGCTTA,-0.0327
CCTTATAG,-0.183
